# Earlier results as cited in several papers.
# Lines come from different studies, so protocols differ.
Structure (SMILES),tested on,assay,test system,setting,quantity,result
CCCCc1ccc(-c2ccc(-c3c(C)[nH]c(C)c(Br)c3=O)cn2)cc1,Plasmodium falciparum,whole cell extended time,3D7,72 h,IC50,60 nM
CC1(C)S[C@@H]2[C@H](NC(=O)[C@H](N)c3ccccc3)C(=O)N2[C@H]1C(=O)O,Pseudomonas aeruginosa,,clinical isolate RKI-No_589/12,,MIC,> 16 µg/mL
CCNS(=O)(=O)c1ccc(OC)cc1C1(O)CCN(Cc2cccc(Oc3ccccc3OC)c2)CC1,human CCR8 F112A mutant (TM3),"IP accumulation, agonist",,,EC50,13 nM
Nc1cc(C(F)(F)F)c(-c2nc(N3CCOCC3)nc(N3CCOCC3)n2)cn1,SHP77,,,,GI50,6700 nM
Cc1[nH]c(C)c(-c2ccc(-c3cccc(C(F)(F)F)c3)nc2)c(=O)c1Br,Plasmodium falciparum,whole cell extended time,3D7,72 h,IC50,140 nM
C[C@H]1COCCN1c1nc(-c2cnc(N)cc2C(F)F)nc(N2CCOCC2)n1,NCI-H460,,,,GI50,150 nM
Nc1cccc2c1C(=O)N(C1CCC(=O)NC1=O)C2=O (stereo not shown),,,relapsed refractory multiple myeloma patients,"dose not given, alternate-day dosing",overall survival,35.9 months
COc1ccccc1Oc1cccc(CN2CCC(NC(=O)C(CCN3CCCC3)c3ccccc3)CC2)c1 (stereo not shown),human CCR8 F254A mutant (TM6),"IP accumulation, agonist",,,EC50,65 nM
Cc1[nH]c(C)c(-c2ccc(OCCCc3ccccn3)cc2)c(=O)c1Br,Plasmodium falciparum,whole cell extended time,3D7,72 h,IC50,210 nM
COc1ccccc1Oc1cccc(CN2CCC(O)(c3ccccc3C(=O)O)CC2)c1,human CCR8 F46A mutant (TM1),"IP accumulation, agonist",,,EC50,126 nM
CNC(C)C1CCC(N)C(OC2C(N)CC(N)C(OC3OCC(C)(O)C(NC)C3O)C2O)O1 (stereo not shown),Enterobacter cloacae,,clinical isolate RKI-No_210/15,,MIC,2 µg/mL
CCCCCCCc1c(C)[nH]c2ccccc2c1=O,Plasmodium falciparum,whole cell extended time,3D7,72 h,IC50,210 nM
COc1ccccc1Oc1cccc(CN2CCC(NC(=O)C3CC(=O)Nc4ccccc43)CC2)c1 (stereo not shown),human CCR8 S110W mutant (TM3),"IP accumulation, agonist",,,EC50,> 10000 nM
